Measured values pooled from the literature.
Numbered parts are unrelated; each lists some results of a single study. Substitutions count along the parent as printed.
Sequence of UniProt Q96SW2 (whole entry, looked up): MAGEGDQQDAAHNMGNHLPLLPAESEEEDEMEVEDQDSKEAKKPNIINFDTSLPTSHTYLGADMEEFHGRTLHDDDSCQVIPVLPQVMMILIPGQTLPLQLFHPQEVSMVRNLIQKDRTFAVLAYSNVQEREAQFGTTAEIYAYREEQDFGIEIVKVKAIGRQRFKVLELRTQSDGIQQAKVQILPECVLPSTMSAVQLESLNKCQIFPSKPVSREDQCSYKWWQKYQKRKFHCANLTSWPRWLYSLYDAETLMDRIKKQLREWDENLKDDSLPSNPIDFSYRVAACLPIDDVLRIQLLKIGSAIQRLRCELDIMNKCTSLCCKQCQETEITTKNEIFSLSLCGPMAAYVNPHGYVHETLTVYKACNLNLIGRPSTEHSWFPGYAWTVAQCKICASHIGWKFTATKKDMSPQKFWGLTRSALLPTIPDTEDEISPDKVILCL
Sequence of UniProt Q9UKS7 (whole entry, looked up): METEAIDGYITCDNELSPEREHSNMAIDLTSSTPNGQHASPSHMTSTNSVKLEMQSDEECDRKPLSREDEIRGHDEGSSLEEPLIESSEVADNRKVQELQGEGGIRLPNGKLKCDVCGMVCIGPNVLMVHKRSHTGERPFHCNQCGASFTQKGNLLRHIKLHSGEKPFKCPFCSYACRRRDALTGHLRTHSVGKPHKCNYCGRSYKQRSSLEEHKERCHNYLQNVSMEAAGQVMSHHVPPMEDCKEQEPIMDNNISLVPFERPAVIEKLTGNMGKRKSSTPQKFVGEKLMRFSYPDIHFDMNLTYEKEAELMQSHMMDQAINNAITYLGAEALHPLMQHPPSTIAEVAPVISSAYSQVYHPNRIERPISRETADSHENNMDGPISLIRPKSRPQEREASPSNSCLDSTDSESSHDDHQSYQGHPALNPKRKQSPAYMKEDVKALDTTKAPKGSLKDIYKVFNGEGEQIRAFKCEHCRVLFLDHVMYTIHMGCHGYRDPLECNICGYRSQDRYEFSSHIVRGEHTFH

Set 1 — target: tungstate, free oxyanion; method: microfluidic competitive inhibition; medium: in vitro, cell-free expressed; concentration: not given; direction: lower = stronger binding; measurement: oxyanion analog dissociation constant
Setting: derived from inhibition constants, unchanged parent 2230 nM
Starting sequence: PafA, mature enzyme, eGFP fusion (Elizabethkingia meningoseptica, UniProt Q9KJX5); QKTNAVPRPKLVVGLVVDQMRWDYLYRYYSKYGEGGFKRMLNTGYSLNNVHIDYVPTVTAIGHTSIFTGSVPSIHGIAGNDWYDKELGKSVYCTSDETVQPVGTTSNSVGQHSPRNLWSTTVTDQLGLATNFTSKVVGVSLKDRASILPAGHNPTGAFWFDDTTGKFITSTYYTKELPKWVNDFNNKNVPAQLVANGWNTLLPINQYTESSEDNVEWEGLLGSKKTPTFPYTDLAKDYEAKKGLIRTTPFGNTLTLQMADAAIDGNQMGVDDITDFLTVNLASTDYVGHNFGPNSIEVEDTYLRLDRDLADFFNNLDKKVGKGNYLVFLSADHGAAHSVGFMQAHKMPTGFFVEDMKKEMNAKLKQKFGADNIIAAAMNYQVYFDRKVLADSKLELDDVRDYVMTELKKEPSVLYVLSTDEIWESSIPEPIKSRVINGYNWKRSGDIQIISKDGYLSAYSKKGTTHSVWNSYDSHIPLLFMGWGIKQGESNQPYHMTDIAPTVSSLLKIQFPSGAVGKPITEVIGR
Substitution = K363G; value = 1.93 µM
Substitution = G269A; value = 1.9 µM
Substitution = A5G; value = 2.34 µM
Substitution = G321A; value = 2.04 µM
Substitution = S73V; value = 978 nM
Substitution = A195G; value = 2.13 µM
Substitution = T255G; value = 3.93 µM
Substitution = D397G; value = 2.1 µM

Set 2 — target: CCNB1, cyclin fold, Cln2 fusion (human); method: yeast growth competition, sequencing; medium: yeast; setting: strong parent motif; baseline: not given; direction: higher = stronger binding; measurement: normalised enrichment score
Starting sequence: viral docking peptide; YKVKRRLVFGADD; partner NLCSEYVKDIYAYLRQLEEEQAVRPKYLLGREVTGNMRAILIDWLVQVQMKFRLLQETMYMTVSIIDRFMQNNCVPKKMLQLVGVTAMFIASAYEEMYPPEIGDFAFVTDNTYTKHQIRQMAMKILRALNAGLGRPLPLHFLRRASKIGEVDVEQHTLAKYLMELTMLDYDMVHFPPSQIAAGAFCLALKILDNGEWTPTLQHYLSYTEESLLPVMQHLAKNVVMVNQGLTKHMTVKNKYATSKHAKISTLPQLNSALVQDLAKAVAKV
Substitution = R5F; value = 0.607
Substitution = V8C; value = 3.5
Substitution = V8Y; value = 3.72
Substitution = R5A; value = 0.912
Substitution = A11E; value = 4.74
Substitution = R5E; value = 0.724
Substitution = V8N; value = 3.82
Substitution = L7W; value = 0.255

Single results of other studies
SMILES = O=C1CCC(N2Cc3c(ccc4c3OCC43CCN(Cc4ccccc4)CC3)C2=O)C(=O)N1 (stereo not drawn); target = CRBN/Zinc finger protein Helios (Homo sapiens, UniProt Q96SW2+Q9UKS7); test = degrader, HiBiT; system = HEK293; conditions = 0.1694 nM; measurement = protein remaining; value = 108%
SMILES = COc1ccc2c(c1)O[C@@H](c1ccc(OC)c(OC)c1)C[C@H]2NC(=O)C1(c2ccc3c(c2)OC(F)(F)O3)CC1; target = CRK2 (Plasmodium falciparum, UniProt P61075); test = cell-free assay, competition with immobilised ligand; conditions = 1 µM; measurement = remaining binding; value = 84%

Repeated from above (set 1):
Substitution = S73V; value = 978 nM
Substitution = A195G; value = 2.13 µM
